Measured values pooled from the literature.
Each numbered part is a random draw from the data of one study; scales do not carry over between parts.

Series 1
Target: Ras GTPase-activating protein-binding protein 1, full length (G3BP1, Homo sapiens, UniProt Q13283)
Chain of UniProt Q13283 (whole entry, looked up): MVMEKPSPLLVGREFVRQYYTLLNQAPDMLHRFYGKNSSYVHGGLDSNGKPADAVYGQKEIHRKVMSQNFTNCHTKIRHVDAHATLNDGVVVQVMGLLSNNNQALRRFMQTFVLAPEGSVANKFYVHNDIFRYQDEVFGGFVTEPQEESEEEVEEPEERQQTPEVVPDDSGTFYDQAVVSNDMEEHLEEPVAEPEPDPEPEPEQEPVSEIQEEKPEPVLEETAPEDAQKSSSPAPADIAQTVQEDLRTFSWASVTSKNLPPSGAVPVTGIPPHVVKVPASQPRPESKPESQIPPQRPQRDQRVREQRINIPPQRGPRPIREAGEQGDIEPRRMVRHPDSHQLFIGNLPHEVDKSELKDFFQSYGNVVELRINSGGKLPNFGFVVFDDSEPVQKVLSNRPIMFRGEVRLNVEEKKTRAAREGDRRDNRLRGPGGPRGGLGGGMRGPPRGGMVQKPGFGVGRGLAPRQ
Method: RNA Bind-n-Seq
Form: RNA
Medium: in vitro
Concentration: 200 nM
Setting: whole 134-nt RNA, ends assumed
Together with: 150 mM LiCl
Relative to: input library
Direction: higher = stronger binding
All molecules: 7-deaza-guanosine replaces G
All sequences stand within: GGGAGUUCUACAGUCCGACGAUC … UGGAAUUCUCGGGUGUCAAGG
For `ACCAUGCAGGUGGGCAUCUUUGGGAAGUGGGGCAAGGGGGGGAUAGGGUGGGGGGUAACACUUUGGGAACAGGUGGUCCCAGGUCGUUUC`, the log2 enrichment was 0.362.
`ACCAUGCAGGUGGGCAUCUUUGGGAAGUGGGGCAAGGGGGGGAUAGGGAGGGGGGUAACACUUUGGGAACAGGUGGUCCCAGCUCGUUUC` gave a log2 enrichment of 0.248.
With `GUCCUGUGCUACACAUCGUAUGUACCGAAUCAAACCCAAAUUUUUUUAAAUUUUUAAAAAAGUAUUAUGUUACGCCGUUCGGAUCUGCAC` the log2 enrichment was -1.48.
`UGGGUGGUGGAUUUUGUUUAUUUUUUUAGCUCAUUUCCAGGGGUGGGAAUUUUUUUUUAAUAUGUGUCAUGAAUAAAGUUGUUUUUGAAA` has a log2 enrichment of 0.256.
The log2 enrichment of `CACAGACAACACGCACCCACACAGACACAGAGGGAAGUGGUUGGGAUGGGGACAGGGUGCACAGCAGGGCGGGGUAGGACCCCAGCCCCU` is reported as -1.5.
`GUCCUGUGCUACACAUCGUAUGUACCGAAUCGGGUUUUUUUGGGUUUUUUUGGGUGGGAAAGUAUUAUGUUACGCCGUUCGGAUCUGCAC` has a log2 enrichment of -0.642.
The log2 enrichment of `GUCCUGUGCUACACAUCGUAUGUACCGAAUCGGGUUUUUUUGGGUGGGAAAAAAAGGGAAAGUAUUAUGUUACGCCGUUCGGAUCUGCAC` is reported as -0.966.
For `CUCAAGUCCUGUGCUACACAUCGUAUGUACCGAAUCGGUUUUUGGAGGUUUGGAAAGUAUUAUGUUACGCCGUUCGGAUCUGCACUUCCA`, the log2 enrichment was 0.0304.

Series 2
Target: Hepatocyte nuclear factor 3-alpha (Foxa1, Mus musculus, UniProt P35582, residues 1-468, full length assumed)
Method: EMSA with sequencing
Form: double-stranded DNA, one strand shown
Medium: in vitro
Concentration: 10 and 20 nM
Setting: whole designed probe, mean of two concentrations, ends assumed
Relative to: negative control set to 0
Direction: higher = stronger binding
All sequences stand within: GTGAGCGGTGCCCATTGATGGGGAAC … TTTCACTGGGATCGTGGGGAC
Target sequence (chain): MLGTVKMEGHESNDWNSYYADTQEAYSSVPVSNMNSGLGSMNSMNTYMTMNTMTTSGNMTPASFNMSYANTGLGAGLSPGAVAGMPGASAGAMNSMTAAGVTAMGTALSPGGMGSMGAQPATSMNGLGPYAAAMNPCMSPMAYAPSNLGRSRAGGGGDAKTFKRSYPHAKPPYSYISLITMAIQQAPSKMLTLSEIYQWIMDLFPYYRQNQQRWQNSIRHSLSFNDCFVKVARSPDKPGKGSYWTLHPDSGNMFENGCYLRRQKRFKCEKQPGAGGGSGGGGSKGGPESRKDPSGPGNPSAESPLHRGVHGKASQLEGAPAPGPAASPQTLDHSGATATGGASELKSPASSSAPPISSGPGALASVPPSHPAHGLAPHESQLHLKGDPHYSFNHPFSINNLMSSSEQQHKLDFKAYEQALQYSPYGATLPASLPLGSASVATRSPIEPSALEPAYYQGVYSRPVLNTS
`TCACGCTATCCAGCTCAGCACTTGGCAAACATTAGCTCACCACAAGAATGCATCCTCAGGTTTTTAAGTCAGACAAGGGCTTCATAGCAGTTCTATTGACATTGGGGATGAACAGTTCCTTGCGGTGGGGGCTGTTCTGTGCATTGTGAGACGCTCAGCAGCATCCACGTGGCCTCTTTCCACTAGATGCCAA`: “normalised bound fraction” 0.373 ratio.
For `TTTAGACAATTAGGATCCTCCCTTCCCAAGCTCTTTCTCCATTGGAAACACAAAGCAAATAAAGATCTCTGTAGATCAGAATGAGTCAGAAAAGCAAACAAGTGGCATGAATGTGGAAACCTGTGGTTGAAAGCACTCCCATGCCATTCAGGGACCAGAGTCAGGTTAAATGCCAGAAACTAAGGGCTGGAAA`, “normalised bound fraction” read 0.472 ratio.
For `CTAACGTGCAAAATGCTGTACATTAAGTATAGCCAAAATGCAACACTGAGACAGACAGAAAAAACAGGAATTTTTCCAGGGAGATAAATCAAAAGTAAACAAGGAGATAGCTTTAGAGCTGTGCTTTCAATGGCTGGATATTCAAATTATGTTTTATCTCTTAAAATTTCAGAAGTAATATGGGGATACTGAA`, “normalised bound fraction” read 0.442 ratio.
For `ATCTTCCCCCTCTTCCTTGCCCCACCAGCTCACCTTCCCGGGTTGTTTACTTTGAGCAAAGTAAACAAAGCCGGCATTCGTTAACCCTCTTCTGGCGCAAACTGCCAAAGTAAACAGATCTAACATGGTCCTTTGGCGACGCCAGGCTCCGGGAGAGCAAAGCACCGTGTCAGGGCCATGATCCGGGGTGGCC`, “normalised bound fraction” read 0.569 ratio.
For `AACGCTGTAGGTCAGAAAGATGTGCTTACCTTCACACAGAGCTGCAGAAATCAGGAAGGCTGCCAAGAGAGCCACGGCCAGCTTGGAAGTCATGTTTACACACAGTGAGATGGTTCCTTCCGGTGGTTTCTTCCTGGCTCTTGTCCTAGAAGCTTGTGTGCTCTGCTGTCTCTGAAAGTTTGTGCCTTATGGA`, “normalised bound fraction” read 0.248 ratio.
Under “normalised bound fraction”, `ATCTTCCCCCTCTTCCTTGCCCCACCAGCTCACCTTCCCGGGTTATTTGCAGATAGGAAAATAAATAAAGCCGGCATTCGTTAACCCTCTTCTGGCGCAAACTGCTGTTTGCTCTGGATGAATCATGGTCCTTTGGCGACGCCAGGCTAAAAAAAAACAAAGCACCGTGTCAGGGCCATGATCCGGGGTGGCC` is recorded as 0.332 ratio.
`ATCTTCCCCCTCTTCCTTGCCCCACCAGCTCACCTTCCCGGGTTATTTGCAGATAGGAAAATAAATAAAGCCGGCATTCGTTAACCCTCTTCTGGCGCAAACGTTGTTCGCTTCTGGATGAATCATGGTCCTTTGGCGACGCCAGGCTCCGGGAGAGCAAAGCACCGTGTCAGGGCCATGATCCGGGGTGGCC` — result for “normalised bound fraction”: 0.306 ratio.
Under “normalised bound fraction”, `TGGCAAAGTTTTTGCCAGAATTCAGAATTCAATGTAACATATGCTTTGCAGTTTTTCTGTTACGCTGTGATCAATGTATTTATGTGTATATGTGTAAACACATGTAATGTGTGTGTGCGCATATGTGTTGGAGTAATAATATTGTGCCATTCCTGGTATATGGAAAATGGCCTCCAATTTCCCCCCAAATTCT` is recorded as 0.211 ratio.

Series 3
Target: TAR DNA-binding protein 43, full length, His tag (TARDBP, Homo sapiens, UniProt Q13148, residues 1-414)
Method: RNA Bind-n-Seq
Form: RNA
Medium: in vitro
Concentration: 20 nM
Setting: 6-mer, flanks averaged, single round
Together with: 150 mM KCl
Relative to: input library
Direction: higher = stronger binding
Under “6-mer enrichment (R)”, `ACCACC` is recorded as 0.655.
Under “6-mer enrichment (R)”, `CAUUCG` is recorded as 0.585.
For `AGUGGU`, “6-mer enrichment (R)” read 1.47.
`AAGCUA`: “6-mer enrichment (R)” 0.617.
For `AAGCGU`, “6-mer enrichment (R)” read 0.817.
`UAGCAC`: “6-mer enrichment (R)” 0.652.
Under “6-mer enrichment (R)”, `GAACAA` is recorded as 0.796.
`UAACCU`: “6-mer enrichment (R)” 0.586.

Other studies, line by line
With CCC(C(=O)N(C)C)N(c1ccc(C)c(C)c1)S(C)(=O)=O (stereo not shown) the remaining compound was over 100% (mouse, microsomes or S9; 2 µM, 0.5 h).
